# Assay results pooled from the literature.
# Every numbered part comes from another study and shows a few of its results, in no order.
# Sequence of UniProt P53355 (whole entry, looked up): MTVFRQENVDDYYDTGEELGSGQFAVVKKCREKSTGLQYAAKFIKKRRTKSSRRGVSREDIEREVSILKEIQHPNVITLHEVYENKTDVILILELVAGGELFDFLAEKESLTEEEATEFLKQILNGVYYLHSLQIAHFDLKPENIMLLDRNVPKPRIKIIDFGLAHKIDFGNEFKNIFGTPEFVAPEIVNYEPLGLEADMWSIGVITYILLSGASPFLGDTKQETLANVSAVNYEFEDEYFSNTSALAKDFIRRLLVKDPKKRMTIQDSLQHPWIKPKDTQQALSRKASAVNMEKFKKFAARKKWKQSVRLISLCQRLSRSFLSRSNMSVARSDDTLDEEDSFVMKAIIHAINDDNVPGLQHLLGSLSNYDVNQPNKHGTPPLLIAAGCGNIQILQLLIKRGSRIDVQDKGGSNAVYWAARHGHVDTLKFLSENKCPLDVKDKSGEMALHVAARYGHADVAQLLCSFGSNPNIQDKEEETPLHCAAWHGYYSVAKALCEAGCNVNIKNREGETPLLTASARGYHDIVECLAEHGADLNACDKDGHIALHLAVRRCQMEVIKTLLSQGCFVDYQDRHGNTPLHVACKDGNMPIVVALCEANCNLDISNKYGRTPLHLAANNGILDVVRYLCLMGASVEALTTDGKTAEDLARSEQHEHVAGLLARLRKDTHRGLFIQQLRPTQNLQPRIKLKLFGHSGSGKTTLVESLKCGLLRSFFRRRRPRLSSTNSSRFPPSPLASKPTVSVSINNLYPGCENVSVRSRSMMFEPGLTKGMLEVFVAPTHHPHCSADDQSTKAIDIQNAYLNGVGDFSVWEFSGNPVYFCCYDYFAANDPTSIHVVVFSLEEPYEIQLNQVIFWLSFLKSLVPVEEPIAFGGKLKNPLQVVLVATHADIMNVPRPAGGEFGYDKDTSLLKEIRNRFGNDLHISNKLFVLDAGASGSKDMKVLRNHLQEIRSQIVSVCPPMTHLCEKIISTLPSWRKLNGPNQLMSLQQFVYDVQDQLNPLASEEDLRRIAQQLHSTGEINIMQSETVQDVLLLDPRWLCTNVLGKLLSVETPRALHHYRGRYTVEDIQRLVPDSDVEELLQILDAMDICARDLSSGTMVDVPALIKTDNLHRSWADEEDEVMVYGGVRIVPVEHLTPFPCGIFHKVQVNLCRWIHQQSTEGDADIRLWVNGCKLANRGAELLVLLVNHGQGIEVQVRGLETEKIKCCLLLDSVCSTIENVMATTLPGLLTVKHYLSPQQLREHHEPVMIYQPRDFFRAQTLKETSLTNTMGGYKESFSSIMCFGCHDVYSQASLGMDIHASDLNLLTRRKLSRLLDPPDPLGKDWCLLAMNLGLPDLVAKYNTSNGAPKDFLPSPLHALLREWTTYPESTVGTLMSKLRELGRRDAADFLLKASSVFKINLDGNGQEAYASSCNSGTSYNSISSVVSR
# Sequence of UniProt P00519 (whole entry, unmodified, looked up): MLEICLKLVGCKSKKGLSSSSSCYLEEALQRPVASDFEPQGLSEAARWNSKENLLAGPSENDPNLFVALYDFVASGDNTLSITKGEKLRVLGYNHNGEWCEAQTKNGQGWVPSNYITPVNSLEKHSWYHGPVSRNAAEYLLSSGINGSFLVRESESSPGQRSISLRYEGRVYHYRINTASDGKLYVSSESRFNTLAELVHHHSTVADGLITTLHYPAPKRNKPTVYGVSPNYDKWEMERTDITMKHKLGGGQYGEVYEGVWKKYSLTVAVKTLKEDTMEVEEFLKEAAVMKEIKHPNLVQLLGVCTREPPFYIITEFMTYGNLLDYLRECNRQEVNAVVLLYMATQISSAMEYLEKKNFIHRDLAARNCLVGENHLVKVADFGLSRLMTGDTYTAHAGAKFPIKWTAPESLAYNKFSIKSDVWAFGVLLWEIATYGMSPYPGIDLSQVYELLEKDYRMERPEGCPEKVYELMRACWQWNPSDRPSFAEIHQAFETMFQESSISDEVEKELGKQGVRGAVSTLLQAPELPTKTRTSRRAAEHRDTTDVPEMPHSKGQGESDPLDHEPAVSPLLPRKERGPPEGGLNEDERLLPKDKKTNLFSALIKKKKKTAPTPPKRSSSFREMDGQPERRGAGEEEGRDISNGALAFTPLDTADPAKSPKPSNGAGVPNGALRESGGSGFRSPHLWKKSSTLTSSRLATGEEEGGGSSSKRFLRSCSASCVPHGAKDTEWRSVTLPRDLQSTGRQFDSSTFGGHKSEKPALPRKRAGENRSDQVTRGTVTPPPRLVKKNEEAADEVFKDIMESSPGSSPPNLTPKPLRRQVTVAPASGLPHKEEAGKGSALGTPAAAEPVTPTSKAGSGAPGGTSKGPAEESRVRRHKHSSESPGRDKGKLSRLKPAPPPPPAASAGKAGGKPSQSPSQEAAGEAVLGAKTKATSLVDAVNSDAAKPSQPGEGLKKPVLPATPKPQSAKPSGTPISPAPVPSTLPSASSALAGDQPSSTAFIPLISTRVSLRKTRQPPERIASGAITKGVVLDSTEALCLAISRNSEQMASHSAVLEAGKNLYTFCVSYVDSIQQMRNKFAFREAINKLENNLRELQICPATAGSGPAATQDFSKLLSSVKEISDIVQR
# Sequence of UniProt Q9UIK4 (whole entry, looked up): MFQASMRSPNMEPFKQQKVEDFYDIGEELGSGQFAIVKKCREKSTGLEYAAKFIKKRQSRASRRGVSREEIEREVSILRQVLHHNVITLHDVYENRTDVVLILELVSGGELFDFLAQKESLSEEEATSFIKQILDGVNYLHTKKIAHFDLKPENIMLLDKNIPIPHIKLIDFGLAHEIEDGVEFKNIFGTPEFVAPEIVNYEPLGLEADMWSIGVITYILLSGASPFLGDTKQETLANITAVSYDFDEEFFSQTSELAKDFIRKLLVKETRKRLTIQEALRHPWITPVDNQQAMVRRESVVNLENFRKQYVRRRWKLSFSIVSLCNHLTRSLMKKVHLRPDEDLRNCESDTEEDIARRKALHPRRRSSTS
# Sequence of UniProt Q99755 (whole entry, looked up): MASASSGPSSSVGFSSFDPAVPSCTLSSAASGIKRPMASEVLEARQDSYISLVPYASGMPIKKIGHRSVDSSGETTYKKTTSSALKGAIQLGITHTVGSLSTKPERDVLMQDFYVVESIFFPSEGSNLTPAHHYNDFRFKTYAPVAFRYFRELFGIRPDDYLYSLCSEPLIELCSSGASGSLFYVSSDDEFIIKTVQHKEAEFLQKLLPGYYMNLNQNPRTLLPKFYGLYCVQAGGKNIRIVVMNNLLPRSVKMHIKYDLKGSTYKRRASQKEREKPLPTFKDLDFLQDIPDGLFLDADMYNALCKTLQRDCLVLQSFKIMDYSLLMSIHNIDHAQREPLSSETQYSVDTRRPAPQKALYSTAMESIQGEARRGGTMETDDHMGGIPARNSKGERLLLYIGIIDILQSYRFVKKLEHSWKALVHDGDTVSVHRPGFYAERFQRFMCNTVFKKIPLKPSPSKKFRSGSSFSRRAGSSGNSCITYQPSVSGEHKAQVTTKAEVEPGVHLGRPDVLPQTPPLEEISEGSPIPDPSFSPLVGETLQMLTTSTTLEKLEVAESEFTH

# Sample 1
# Organism: Sarcocystis neurona
# Observed: parasite growth
# Concentration: 10 µM
Structure (SMILES),inhibition [%]
COc1cc(CNC(=O)CCCC/C=C\C(C)C)ccc1O,-40
CC(=O)N1CCN(c2ccc(OCC3COC(Cn4ccnc4)(c4ccc(Cl)cc4Cl)O3)cc2)CC1 (centres unmarked),7.9
COC(=O)C1=C(C)NC(C)=C(C(=O)OC(C)C)C1c1cccc2nonc12 (centres unmarked),-42.2
NC(=O)N1c2ccccc2C=Cc2ccccc21,-27.5
COc1cc(/C=C/c2ccc(O)cc2)cc(OC)c1,-103
CN1C(=O)CC[C@H]1c1cccnc1,-24
COc1cc2nc(N3CCN(C(=O)C4COc5ccccc5O4)CC3)nc(N)c2cc1OC (centres unmarked),73.1
CCN(CC)C(=S)SSC(=S)N(CC)CC,96.3

# Sample 2
# SMILES: O=C(NC[C@@H]1[C@H]2CN(C(=O)OCc3cc(C(F)(F)F)cc(C(F)(F)F)c3)C[C@@H]12)c1ccc2[nH]nnc2c1
# Concentration: 1 µM
target,assay,remaining binding
"MAP3K5 (Homo sapiens, UniProt Q99683)","cell-free assay, competition with immobilised ligand",13%
"Tyrosine-protein kinase ABL1, phosphorylated (ABL1, Homo sapiens, UniProt P00519, F317I)",binding,88%
"DAPK1 (Homo sapiens, UniProt P53355)","cell-free assay, competition with immobilised ligand",93%
"PKMYT1 (Homo sapiens, UniProt Q99640)","cell-free assay, competition with immobilised ligand",100%
"PIK3CA (Homo sapiens, UniProt P42336, E545K)","cell-free assay, competition with immobilised ligand",100%
"PIP5K1A (Homo sapiens, UniProt Q99755)","cell-free assay, competition with immobilised ligand",93%
"DAPK2 (Homo sapiens, UniProt Q9UIK4)","cell-free assay, competition with immobilised ligand",85%

# Sample 3
# Target: Receptor tyrosine-protein kinase erbB-4 (ERBB4, Homo sapiens, UniProt Q15303)
# Sequence of UniProt Q15303 (whole entry, looked up): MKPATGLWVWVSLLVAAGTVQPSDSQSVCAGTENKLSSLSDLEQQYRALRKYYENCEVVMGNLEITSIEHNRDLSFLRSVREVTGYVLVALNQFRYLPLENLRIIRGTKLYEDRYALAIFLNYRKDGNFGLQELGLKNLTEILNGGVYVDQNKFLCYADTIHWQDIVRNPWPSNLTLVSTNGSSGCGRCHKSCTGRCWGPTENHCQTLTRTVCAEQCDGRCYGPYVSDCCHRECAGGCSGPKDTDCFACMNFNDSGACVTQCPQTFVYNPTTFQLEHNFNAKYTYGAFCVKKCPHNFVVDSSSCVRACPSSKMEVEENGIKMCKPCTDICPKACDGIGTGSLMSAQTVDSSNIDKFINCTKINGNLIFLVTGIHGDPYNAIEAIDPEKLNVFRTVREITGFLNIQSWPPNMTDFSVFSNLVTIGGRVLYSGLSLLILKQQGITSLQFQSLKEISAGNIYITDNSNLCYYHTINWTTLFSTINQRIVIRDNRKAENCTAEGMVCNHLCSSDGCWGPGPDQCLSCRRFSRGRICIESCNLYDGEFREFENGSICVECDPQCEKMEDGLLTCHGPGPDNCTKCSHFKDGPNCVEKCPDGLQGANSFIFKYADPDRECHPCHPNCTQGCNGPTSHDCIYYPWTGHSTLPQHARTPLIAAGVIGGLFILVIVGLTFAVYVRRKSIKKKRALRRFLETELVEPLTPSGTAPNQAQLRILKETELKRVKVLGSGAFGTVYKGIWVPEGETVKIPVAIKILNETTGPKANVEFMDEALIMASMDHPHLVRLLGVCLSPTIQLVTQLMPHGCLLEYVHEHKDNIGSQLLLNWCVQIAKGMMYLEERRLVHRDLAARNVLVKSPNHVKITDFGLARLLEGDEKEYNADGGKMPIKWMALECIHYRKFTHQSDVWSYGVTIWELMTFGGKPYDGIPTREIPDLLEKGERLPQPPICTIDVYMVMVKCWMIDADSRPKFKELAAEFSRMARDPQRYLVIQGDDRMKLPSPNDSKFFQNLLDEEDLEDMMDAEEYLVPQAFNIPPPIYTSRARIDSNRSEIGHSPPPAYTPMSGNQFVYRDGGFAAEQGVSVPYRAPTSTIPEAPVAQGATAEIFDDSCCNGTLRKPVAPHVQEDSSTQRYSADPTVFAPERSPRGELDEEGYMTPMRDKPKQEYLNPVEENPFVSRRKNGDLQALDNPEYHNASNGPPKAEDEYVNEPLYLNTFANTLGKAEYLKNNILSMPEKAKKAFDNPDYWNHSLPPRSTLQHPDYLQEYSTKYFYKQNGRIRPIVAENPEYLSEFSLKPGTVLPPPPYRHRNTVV
# Observed: enzyme activity
# Action: inhibitor
# Concentration: 0.5 µM
# Relative to: control
SMILES,remaining activity [%]
CNC(=O)c1cc(Oc2ccc(NC(=O)Nc3ccc(Cl)c(C(F)(F)F)c3)cc2)ccn1,94.8
CN(C)c1ccc(C=C2C(=O)Nc3ccccc32)cc1,97.7
O=C(Nc1cccc(Nc2cc(Nc3cccc(C(F)(F)F)c3)ncn2)c1)C1CC1,99.2
O=C1NC(=O)C(c2cn(CCCn3ccnc3)c3ccccc23)=C1Nc1ccccc1,59.6
COc1cc2nccc(Oc3ccc(NC(=S)NC(=O)c4ccccc4C)cc3)c2cc1OC,114
Cc1nc(-c2ccccc2)c(-c2ccncc2)o1,92.2
O=C(O)c1ccc2c3c1cccc3c(=O)n1c3ccccc3nc21,105
CCOC(=O)c1c(C)[nH]c(/C=C2\C(=O)Nc3ccccc32)c1C,71.2
COc1cc2ncnc(Nc3ccc(Oc4ccccc4)cc3)c2cc1OC,8.79
N#CC(C#N)=C(N)/C(C#N)=C/c1ccc(O)cc1,92.7
Nc1ccc2ncnc(NCCc3ccc(Oc4ccccc4)cc3)c2c1,70.2
Cn1c2ccccc2c2c3c(c4c5ccccc5n(CCC#N)c4c21)CNC3=O,100
COc1ccc(OC)c2c(=S)c3ccccc3[nH]c12,104
O=C1NC(=O)C(c2cn(CCCO)c3ncccc23)=C1c1cnccn1,115
Oc1ccc(-c2nc(-c3ccncc3)c(-c3ccc(F)cc3)[nH]2)cc1,83.1

# Sample 4
# Technique: exponential regression of PRP log k'
SMILES,"logD (1,9-decadiene/water)"
CCCCOc1ccc(-c2ccc(C(=O)OCCCCCC(=O)N[C@H](C(=O)N3C[C@H](O)C[C@H]3C(=O)NCc3ccc(-c4scnc4C)cc3)C(C)(C)C)cc2)cc1,3.23
CCCC(=O)OCCCCCC(=O)N[C@H](C(=O)N1C[C@H](O)C[C@H]1C(=O)NCc1ccc(-c2scnc2C)cc1)C(C)(C)C,-1.56
CCCC(=O)NCCCCCC(=O)N[C@H](C(=O)N1C[C@H](O)C[C@H]1C(=O)NCc1ccc(-c2scnc2C)cc1)C(C)(C)C,-4.89
Cc1ncsc1-c1ccc(CNC(=O)[C@@H]2C[C@@H](O)CN2C(=O)[C@@H](NC(=O)CCCCCOC(=O)CC(c2ccccc2)c2ccccc2)C(C)(C)C)cc1,1.25
Cc1ncsc1-c1ccc(CNC(=O)[C@@H]2C[C@@H](O)CN2C(=O)[C@@H](NC(=O)CCCCCNC(=O)C2CCCCC2)C(C)(C)C)cc1,-2.67

# Repeated from above (sample 3):
SMILES,remaining activity [%]
Cc1nc(-c2ccccc2)c(-c2ccncc2)o1,92.2
Cn1c2ccccc2c2c3c(c4c5ccccc5n(CCC#N)c4c21)CNC3=O,100
COc1cc2ncnc(Nc3ccc(Oc4ccccc4)cc3)c2cc1OC,8.79
